Measurements of several laboratories.
Values joined by “and” are separate records of one study, mostly repeats; a detail may differ.
Target: RAC-gamma serine/threonine-protein kinase (AKT3, Homo sapiens, UniProt Q9Y243)

C=CC(=O)Nc1cccc(-c2cnc3[nH]cc(C(=O)NC(C)(C)C)c3n2)c1  inhibition (kinase activity; 0.1 µM): 0% and -1%
CN1CCN(Cc2ccc(-c3ccc(CO[C@H]4CCC[C@@H]4NC(=O)c4cc(-c5cnn(C)c5)cnc4N)cc3)cc2)CC1  inhibition (enzyme activity, inhibitor; 0.1 µM): 6%
O=C(Cc1ccc(OCc2ccccc2)cc1)NC1(C(=O)O)CCN(C(=O)c2ccc(-c3cccc(Cl)c3)cc2)CC1  activity vs control (enzyme activity, inhibitor; 10 µM): 106%
NC(=O)C[C@H]1CCc2sc3ncnc(O[C@H]4CC[C@H](N5CCOCC5)CC4)c3c21  inhibition (enzyme activity, inhibitor; 10 µM): -2%
COc1c(Cl)cccc1Nc1c(-c2ccncc2C#C[C@@]2(C)CCCN2C(=O)/C=C/CN(C)C)[nH]c2c1C(=O)NCC2  remaining binding (binding, competition with immobilised ligand; 3 µM): 96%
O=C=[N][Ru-4]123([n]4c5ccc(O)cc5c5c6c(c7cc(F)c[n+]1c7c54)C(=O)NC6=O)[S+]1CC[S+]2CC[S+]3CC1 (centres unmarked)  remaining activity (enzyme activity; 100 nM, human enzyme, together with: 10 µM ATP; reference: untreated): 49%
COCC12C(=O)NC3C4(C(OC)CC1O)C1CC5(O)C(OC)C(O)C(OC(C)=O)(C1C5OC(=O)c1ccccc1)C3(O)C(OC)C24 (centres unmarked)  remaining activity (kinase activity, inhibitor, ProQinase kinase profiling; 25 µM; reference: control): 112% and 90%
Cc1cnc2nc1Nc1cccc(c1)COC/C=C/COCc1cc(ccc1OCCN1CCOCC1)N2  remaining binding (binding; 0.1 µM): 100%
Cc1cccc(O[C@H]2CCC[C@@H](C(C)CNCc3ccncc3)C2)c1 (relative stereo)  inhibition (enzyme activity, inhibitor; 1 µM): -5%
COc1cc(Nc2nccc(-c3cnn4nc(OC)ccc34)n2)cc(C(F)(F)F)c1  remaining binding (binding, competition with immobilised ligand; 1 µM): 100%
CNC(=O)C1CCN(c2cc(C)c(F)cc2NC(=O)c2ccc(-c3cc(O)ccc3C)c(C)c2)CC1  remaining binding (binding, competition with immobilised ligand; 1 µM): 98%
O=c1c(-c2ccc(Cl)c(CN3CCOCC3)c2)coc2cc(O)ccc12  remaining activity (enzyme activity, inhibitor; 1 µM): 111%
Nc1ncc2c(n1)-c1c([nH]c3ccc(C4=CCOCC4)cc13)CCC2  remaining binding (binding, competition with immobilised ligand; 1 µM): 54%
COc1c(OCCCN2CCOCC2)ccc2c1N=C(NC(=O)c1cnc(N)nc1)N1CCN=C21  remaining activity (kinase activity, inhibitor; 1 µM; reference: untreated control): 89%

Some of these lines once more:
CN1CCN(Cc2ccc(-c3ccc(CO[C@H]4CCC[C@@H]4NC(=O)c4cc(-c5cnn(C)c5)cnc4N)cc3)cc2)CC1  inhibition (enzyme activity, inhibitor; 0.1 µM): 6%
